# Results pooled from the literature.
# Compare with care: the assays were run in different laboratories.
# UniProt P0DMS8, sequence (whole entry, looked up): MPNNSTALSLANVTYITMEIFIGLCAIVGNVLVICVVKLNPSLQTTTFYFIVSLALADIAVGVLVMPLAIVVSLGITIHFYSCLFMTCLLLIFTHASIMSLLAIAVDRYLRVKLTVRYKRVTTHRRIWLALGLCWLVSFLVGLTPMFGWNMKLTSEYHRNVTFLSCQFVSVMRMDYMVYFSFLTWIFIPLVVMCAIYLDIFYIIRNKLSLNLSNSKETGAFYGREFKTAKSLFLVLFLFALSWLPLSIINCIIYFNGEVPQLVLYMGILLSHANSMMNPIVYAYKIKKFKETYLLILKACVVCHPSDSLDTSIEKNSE
# UniProt O00329, sequence (whole entry, looked up): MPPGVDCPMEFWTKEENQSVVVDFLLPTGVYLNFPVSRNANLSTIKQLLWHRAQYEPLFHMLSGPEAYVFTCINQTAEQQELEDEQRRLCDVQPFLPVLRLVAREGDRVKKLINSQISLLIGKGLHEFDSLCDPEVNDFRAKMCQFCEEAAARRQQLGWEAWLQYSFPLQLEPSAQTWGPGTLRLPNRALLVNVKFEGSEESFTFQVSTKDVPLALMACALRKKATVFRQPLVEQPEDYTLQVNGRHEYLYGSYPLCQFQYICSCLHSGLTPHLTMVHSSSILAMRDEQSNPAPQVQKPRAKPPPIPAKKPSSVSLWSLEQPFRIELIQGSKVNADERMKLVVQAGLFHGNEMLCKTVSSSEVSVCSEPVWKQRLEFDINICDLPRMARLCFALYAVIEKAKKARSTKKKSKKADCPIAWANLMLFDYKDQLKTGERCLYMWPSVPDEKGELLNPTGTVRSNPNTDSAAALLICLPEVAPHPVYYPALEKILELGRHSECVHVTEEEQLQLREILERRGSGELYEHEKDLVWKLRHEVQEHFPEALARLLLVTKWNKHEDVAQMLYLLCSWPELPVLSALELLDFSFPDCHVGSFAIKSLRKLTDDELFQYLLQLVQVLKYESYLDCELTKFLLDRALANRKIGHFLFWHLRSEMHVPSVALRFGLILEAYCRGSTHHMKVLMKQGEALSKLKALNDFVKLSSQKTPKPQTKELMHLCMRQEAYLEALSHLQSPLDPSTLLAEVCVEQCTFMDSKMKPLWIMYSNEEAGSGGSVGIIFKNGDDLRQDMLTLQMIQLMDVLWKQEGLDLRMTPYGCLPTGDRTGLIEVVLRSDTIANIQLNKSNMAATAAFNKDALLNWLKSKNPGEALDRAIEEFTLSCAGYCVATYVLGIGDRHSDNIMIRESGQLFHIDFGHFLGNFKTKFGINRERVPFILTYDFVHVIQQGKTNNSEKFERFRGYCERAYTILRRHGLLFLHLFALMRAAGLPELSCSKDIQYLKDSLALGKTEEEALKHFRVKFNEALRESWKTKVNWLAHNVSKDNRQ
# UniProt P43140, sequence (whole entry, looked up): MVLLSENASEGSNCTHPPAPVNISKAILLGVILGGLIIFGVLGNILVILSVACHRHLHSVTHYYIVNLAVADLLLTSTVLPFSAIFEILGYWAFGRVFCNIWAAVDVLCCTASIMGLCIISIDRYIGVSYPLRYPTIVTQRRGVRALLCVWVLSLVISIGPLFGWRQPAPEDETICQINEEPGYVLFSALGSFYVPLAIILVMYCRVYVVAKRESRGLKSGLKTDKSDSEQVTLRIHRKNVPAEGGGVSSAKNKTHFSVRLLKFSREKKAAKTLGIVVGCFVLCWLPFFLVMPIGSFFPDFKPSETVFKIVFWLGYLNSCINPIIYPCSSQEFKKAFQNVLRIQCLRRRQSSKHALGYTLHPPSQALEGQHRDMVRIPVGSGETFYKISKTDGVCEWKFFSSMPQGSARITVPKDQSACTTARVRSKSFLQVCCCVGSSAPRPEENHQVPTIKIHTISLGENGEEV
# UniProt Q07157, sequence (whole entry, looked up): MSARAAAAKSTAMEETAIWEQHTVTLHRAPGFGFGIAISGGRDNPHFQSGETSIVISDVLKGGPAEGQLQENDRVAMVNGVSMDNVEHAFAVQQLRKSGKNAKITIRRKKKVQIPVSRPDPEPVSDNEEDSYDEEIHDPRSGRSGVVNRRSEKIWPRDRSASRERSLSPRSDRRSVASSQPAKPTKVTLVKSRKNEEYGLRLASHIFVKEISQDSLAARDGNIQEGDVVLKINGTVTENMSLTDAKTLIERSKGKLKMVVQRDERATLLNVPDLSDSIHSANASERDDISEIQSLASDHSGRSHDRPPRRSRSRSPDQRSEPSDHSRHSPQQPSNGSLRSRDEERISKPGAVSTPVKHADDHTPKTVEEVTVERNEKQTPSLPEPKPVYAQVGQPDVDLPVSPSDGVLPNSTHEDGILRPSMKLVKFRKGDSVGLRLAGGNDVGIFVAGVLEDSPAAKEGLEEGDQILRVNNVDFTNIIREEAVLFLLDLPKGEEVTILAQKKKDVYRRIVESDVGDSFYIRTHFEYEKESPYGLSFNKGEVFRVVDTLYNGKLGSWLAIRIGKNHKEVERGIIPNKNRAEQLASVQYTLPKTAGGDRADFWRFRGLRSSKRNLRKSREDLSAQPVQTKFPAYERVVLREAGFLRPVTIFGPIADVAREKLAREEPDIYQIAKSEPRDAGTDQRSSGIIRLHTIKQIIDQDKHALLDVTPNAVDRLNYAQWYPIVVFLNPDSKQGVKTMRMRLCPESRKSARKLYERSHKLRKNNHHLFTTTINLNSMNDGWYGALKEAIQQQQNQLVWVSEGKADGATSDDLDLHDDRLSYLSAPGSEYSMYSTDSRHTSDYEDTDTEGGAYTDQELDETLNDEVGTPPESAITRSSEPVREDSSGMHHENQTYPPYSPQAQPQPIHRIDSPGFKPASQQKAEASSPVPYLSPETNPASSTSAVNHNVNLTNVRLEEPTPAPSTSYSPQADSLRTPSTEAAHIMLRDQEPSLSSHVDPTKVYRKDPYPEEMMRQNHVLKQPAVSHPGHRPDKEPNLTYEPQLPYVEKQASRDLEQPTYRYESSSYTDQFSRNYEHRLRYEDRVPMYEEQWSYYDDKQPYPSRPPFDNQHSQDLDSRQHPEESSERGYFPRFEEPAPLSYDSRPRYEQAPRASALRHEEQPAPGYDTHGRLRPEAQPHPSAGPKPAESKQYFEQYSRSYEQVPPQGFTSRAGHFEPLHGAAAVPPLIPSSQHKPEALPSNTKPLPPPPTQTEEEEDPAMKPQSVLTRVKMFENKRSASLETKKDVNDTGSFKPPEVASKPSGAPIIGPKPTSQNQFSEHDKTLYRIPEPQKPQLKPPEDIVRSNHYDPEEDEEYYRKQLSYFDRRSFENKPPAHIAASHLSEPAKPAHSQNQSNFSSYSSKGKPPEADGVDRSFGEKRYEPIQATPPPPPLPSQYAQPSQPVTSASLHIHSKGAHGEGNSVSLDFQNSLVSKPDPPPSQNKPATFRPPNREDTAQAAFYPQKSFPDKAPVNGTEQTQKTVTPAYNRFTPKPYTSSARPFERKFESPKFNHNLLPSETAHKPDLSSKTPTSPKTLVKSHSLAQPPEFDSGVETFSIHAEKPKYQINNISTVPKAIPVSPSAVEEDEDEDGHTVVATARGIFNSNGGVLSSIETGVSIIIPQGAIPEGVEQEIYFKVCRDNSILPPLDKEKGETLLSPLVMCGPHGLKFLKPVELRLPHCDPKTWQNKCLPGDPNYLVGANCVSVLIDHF
# UniProt Q9H300, sequence (whole entry, looked up): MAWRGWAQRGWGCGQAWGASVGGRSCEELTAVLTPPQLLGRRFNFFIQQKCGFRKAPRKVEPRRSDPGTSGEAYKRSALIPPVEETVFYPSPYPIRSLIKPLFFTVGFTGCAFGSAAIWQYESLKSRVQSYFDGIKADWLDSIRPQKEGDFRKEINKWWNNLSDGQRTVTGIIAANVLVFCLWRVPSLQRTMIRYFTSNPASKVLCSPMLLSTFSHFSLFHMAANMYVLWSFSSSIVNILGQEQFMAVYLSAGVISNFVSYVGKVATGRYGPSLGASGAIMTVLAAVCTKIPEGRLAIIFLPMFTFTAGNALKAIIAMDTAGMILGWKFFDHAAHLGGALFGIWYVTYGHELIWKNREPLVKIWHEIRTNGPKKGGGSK
# UniProt O15530, sequence (whole entry, looked up): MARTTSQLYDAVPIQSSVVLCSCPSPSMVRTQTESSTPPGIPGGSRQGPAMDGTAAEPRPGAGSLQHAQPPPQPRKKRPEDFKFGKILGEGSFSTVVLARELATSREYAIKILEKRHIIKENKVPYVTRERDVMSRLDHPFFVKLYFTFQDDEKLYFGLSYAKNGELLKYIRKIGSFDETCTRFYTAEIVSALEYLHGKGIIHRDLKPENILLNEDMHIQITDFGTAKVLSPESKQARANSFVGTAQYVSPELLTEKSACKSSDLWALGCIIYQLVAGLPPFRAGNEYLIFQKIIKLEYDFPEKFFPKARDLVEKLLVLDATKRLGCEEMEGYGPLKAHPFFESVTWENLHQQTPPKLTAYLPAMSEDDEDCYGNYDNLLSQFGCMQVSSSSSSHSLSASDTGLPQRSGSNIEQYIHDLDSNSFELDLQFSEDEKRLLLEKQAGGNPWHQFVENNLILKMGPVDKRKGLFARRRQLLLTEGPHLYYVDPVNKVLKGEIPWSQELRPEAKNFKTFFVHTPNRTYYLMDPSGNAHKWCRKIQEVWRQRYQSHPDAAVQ
# UniProt Q96GD4, sequence (whole entry, looked up): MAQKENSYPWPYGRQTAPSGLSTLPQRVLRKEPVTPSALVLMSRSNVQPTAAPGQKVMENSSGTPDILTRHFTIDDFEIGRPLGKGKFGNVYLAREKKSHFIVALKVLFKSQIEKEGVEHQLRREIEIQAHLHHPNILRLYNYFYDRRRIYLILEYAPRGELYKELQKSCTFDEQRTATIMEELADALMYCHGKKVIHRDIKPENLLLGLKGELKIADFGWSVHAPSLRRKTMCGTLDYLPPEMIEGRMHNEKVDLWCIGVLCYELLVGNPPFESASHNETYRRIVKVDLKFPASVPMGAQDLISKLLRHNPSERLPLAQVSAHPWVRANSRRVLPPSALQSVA
Structure (SMILES),tested on,assay,test system,conditions,scale,measurement,result
COc1cc(Nc2ncc(F)c(Nc3ccc4c(n3)NC(=O)C(C)(C)O4)n2)cc(OC)c1OC,"Ankyrin repeat and protein kinase domain-containing protein 1 (ANKK1, Homo sapiens, UniProt Q8NFD2)",KINOMEscan,,10 µM,,inhibition,95%
C[C@H]1CN(c2n[nH]c3nc(N[C@H]4CC[C@H](NS(=O)(=O)CCC(F)(F)F)CC4)ncc23)CCO1,"Tight junction protein 1 (TJP1, Homo sapiens, UniProt Q07157)","Kinobeads competition, item: TJP1",,"20 µM, unit not given",relative to: vehicle,remaining binding,1.09
O=C(c1ccc(Cl)cc1)N1CCN2C(=O)N(OC(=O)N3CCOc4ccccc43)C(=O)C2C1 (stereo not shown),"Presenilin-associated rhomboid-like protein, mitochondrial (PARL, Homo sapiens, UniProt Q9H300)","enzyme activity, inhibitor, MS-based ABPP",SW-620 in situ,"10 µM, 2 h, 37 °C","relative to: compound over DMSO, lower = stronger inhibition",median ratio,1.01
O=C(Nc1cccnn1)N1CCC(=Cc2cccc(Oc3ccc(C(F)(F)F)cn3)c2)CC1,"Alpha-1A adrenergic receptor (Adra1a, Rattus norvegicus, UniProt P43140)",binding,,"50 µM, with: [3H]prazosin",,inhibition,62%
Cn1cc(-c2cccc(N3CCc4c(sc5c4CC(C)(C)C5)C3=O)c2CO)cc(Nc2ccncn2)c1=O,"3-phosphoinositide-dependent protein kinase 1 (PDPK1, Homo sapiens, UniProt O15530)","kinase activity, inhibitor, SelectScreen",,"1 µM, with: ATP at apparent Km",,inhibition,14%
COc1ccc(N2C(=O)N(c3c(C)cccc3Cl)Cc3cnc(Nc4ccc(C5CCN(C)CC5)cc4OC)nc32)nc1,"Aurora kinase B (AURKB, Homo sapiens, UniProt Q96GD4)","kinase activity, inhibitor",,"0.5 µM, kinase AURORA-B",,inhibition,9%
C#Cc1n[nH]c2c(-c3cn([C@@H](C)c4ccccn4)c(=O)[nH]c3=O)cc(F)cc12,"Phosphatidylinositol 4,5-bisphosphate 3-kinase catalytic subunit delta isoform, with p85 alpha (PIK3CD, Homo sapiens, UniProt O00329)","kinase activity, inhibitor",,100 nM,,inhibition,4.9%
Cc1ncc(C)n2nc(/C=C/c3nc(N4CCCC4)cc(N4CCOCC4)n3)nc12,central benzodiazepine receptor,radioligand binding,,10 µM,,inhibition,-3%
C[C@@H](O)[C@@H](CO)NC(=O)[C@@H](CCCNC(=N)N)NC(=O)[C@@H]1CCCN1C(=O)[C@@H]1CSSC[C@H](NC(=O)[C@H](Cc2ccccc2)NC(=O)CN2CCN(CC(=O)O)CCN(CC(=O)O)CCN(CC(=O)O)CC2)C(=O)N[C@@H](Cc2ccc(O)cc2)C(=O)N[C@@H](Cc2ccccc2)C(=O)N[C@@H](CCC(N)=O)C(=O)N[C@@H](CC(N)=O)C(=O)N1 [gallium-68 labelled],,,"healthy Wistar rat, brain","intravenous, 8 MBq, 30 min, individual animals",,tissue uptake,0.04 %ID/g
O=C(Nc1cnccc1Cl)N1CCN(Cc2ccc3c(c2)OC(F)(F)O3)CC1,"IP3 receptor, rat",binding,,"50 µM, with: [3H]IP3",,inhibition,-7%
COc1cc2c(Oc3ccc4[nH]c(C)cc4c3F)ccnc2cc1OCC1(N)CC1,,,paediatric refractory sarcoma patients,8 mg,,grade 3 mouth ulcer,0%
CN(C(=O)n1cnc(-c2ccc[n+]([O-])c2)c1)C1CCCCC1,"central imidazoline I2 receptor, rat",binding,,"10 µM, with: [3H]idazoxan",,inhibition,4%
CN1CCN(c2cc(-c3ccncc3)c(-c3ccc4ccccc4c3)nn2)CC1,"Adenosine receptor A3 (ADORA3, Homo sapiens, UniProt P0DMS8)","antagonist, FLIPR",,10 µM,,inhibition,12.1%
